Measurements from different studies.
Compare with care: the assays were run in different laboratories. ± gives the spread as reported.

Compound | test system | setting | tissue uptake
CC(C)[C@H](NC(=O)[C@@H]1CCCN1C(=O)[C@H](CCCNC(=N)N)NC(=O)[C@H](CS)NC(=O)[C@H](Cc1c[nH]c2ccccc12)NC(=O)[C@H](CCCNC(=N)N)NC(=O)[C@@H](Cc1ccccc1)NC(=O)[C@H](Cc1c[nH]cn1)NC(=O)[C@H](CCC(=O)O)NC(=O)[C@H](CS)NC(=O)[C@H](CS)NC(=O)[C@@H]1CC(=O)N[C@@H](CCCNC(=N)N)C(=O)NCC(=O)N[C@@H](CC(=O)O)C(=O)N[C@H](Cc2ccc(O)cc2)C(=O)N1)C(N)=O [technetium-99m labelled] | C57 mouse, female, B16/F1 melanoma, spleen | intravenous, 0.037 MBq, 0.5 h | 1.66 ± 0.25 %ID/g
CN1C(=O)[C@@H](Cc2ccc(O)c(I)c2)NC(=O)CNC(=O)[C@H](Cc2ccc3ccccc3c2)NC(=O)[C@H](CCCNC(=N)N)NC(=O)[C@H]1CCCNC(=O)c1ccc(CNC(=O)CN2CCN(CC(=O)O)CCN(CC(=O)O)CCN(CC(=O)O)CC2)cc1 [lutetium-177 labelled] | female CB-17 SCID mouse, Daudi xenograft, small intestine | intravenous, 6 h, CXCR4 blocking, with: AMD3100 2 mg/kg coinjected | 0.17 ± 0.004 %ID/g
CCCC[C@H](NC(=O)CNC(=O)CNC(=O)CN1CCN(CC(=O)O)CCN(CC(=O)O)CCN(CC(=O)O)CC1)C(=O)N[C@H]1CC(=O)NCCCC[C@@H](C(N)=O)NC(=O)[C@H](Cc2c[nH]c3ccccc23)NC(=O)[C@H](CCCNC(=N)N)NC(=O)[C@@H](Cc2ccccc2)NC(=O)[C@H](Cc2c[nH]cn2)NC1=O [copper-64 labelled] | female C57 mouse, B16/F1 melanoma, skin | intravenous, 0.037 MBq, 2 h | 1.6 ± 0.35 %ID/g
O=C([O-])CN1CCN(CC(=O)[O-])CCN(CC(=O)NCCc2ccc3c(c2)C2C=CCC2C(c2cc4c(cc2Br)OCO4)N3)CCN(CC(=O)[O-])CC1.[111In+3] (centres unmarked) | mouse, Hec50 endometrial tumour, stomach | 2 h post injection | 0.61 ± 0.18 %ID/g
CCCC[C@H](NC(=O)CNC(=O)CNC(=O)CN1CCN(CC(=O)O)CCN(CC(=O)O)CCN(CC(=O)O)CC1)C(=O)N[C@H]1CC(=O)NCCCC[C@@H](C(N)=O)NC(=O)[C@H](Cc2c[nH]c3ccccc23)NC(=O)[C@H](CCCNC(=N)N)NC(=O)[C@@H](Cc2ccccc2)NC(=O)[C@H](Cc2c[nH]cn2)NC1=O [lead-203 labelled] | C57 mouse, brain | intravenous, 0.056 MBq, 4 h | 0.04 ± 0.01 %ID/g
CN(C)c1ccc(-c2nc3ccc(OCCCCCN4CCN5CCN(CC4)CC(=O)[O][Al]([18F])[O]C(=O)C5)cc3s2)cc1 | ICR mouse, blood | intravenous, 30 min | 0.54 ± 0.12 %ID/g
CCCC[C@H](NC(=O)CNC(=O)CNC(=O)CN1CCN(CC(=O)O)CCN(CC(=O)O)CC1)C(=O)N[C@H]1CC(=O)NCCCC[C@@H](C(N)=O)NC(=O)[C@H](Cc2c[nH]c3ccccc23)NC(=O)[C@H](CCCNC(=N)N)NC(=O)[C@@H](Cc2ccccc2)NC(=O)[C@H](Cc2c[nH]cn2)NC1=O [copper-64 labelled] | C57 mouse female B16/F1 melanoma, intestines | intravenous, 0.037 MBq, 4 h | 1.19 ± 0.23 %ID
CC(C)[C@H](NC(=O)[C@@H]1CCCN1C(=O)[C@H](CCCNC(=N)N)NC(=O)[C@H](CS)NC(=O)[C@H](Cc1c[nH]c2ccccc12)NC(=O)[C@H](CCCNC(=N)N)NC(=O)[C@@H](Cc1ccccc1)NC(=O)[C@H](Cc1c[nH]cn1)NC(=O)[C@H](CCC(=O)O)NC(=O)[C@H](CS)NC(=O)[C@H](CS)NC(=O)CNC(=O)[C@@H]1CC(=O)N[C@@H](CCCNC(=N)N)C(=O)NCC(=O)N[C@@H](CC(=O)O)C(=O)N[C@H](Cc2ccc(O)cc2)C(=O)N1)C(N)=O [technetium-99m labelled] | C57 mouse, female, B16/F1 melanoma, liver | intravenous, 0.037 MBq, 2 h | 2.52 ± 0.41 %ID/g
